# Measurements from different studies.
# Numbered parts are unrelated; each lists some results of a single study.
# UniProt Q9HC98, sequence (whole entry, looked up): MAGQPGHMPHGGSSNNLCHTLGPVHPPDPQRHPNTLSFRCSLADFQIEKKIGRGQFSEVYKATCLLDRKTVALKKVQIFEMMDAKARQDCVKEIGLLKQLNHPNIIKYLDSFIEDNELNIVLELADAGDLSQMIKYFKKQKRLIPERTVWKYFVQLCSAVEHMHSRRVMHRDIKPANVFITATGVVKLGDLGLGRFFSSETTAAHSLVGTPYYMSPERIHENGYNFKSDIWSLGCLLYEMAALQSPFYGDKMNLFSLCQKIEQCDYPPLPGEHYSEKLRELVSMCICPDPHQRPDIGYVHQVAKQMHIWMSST
# UniProt P49841, sequence (whole entry, looked up): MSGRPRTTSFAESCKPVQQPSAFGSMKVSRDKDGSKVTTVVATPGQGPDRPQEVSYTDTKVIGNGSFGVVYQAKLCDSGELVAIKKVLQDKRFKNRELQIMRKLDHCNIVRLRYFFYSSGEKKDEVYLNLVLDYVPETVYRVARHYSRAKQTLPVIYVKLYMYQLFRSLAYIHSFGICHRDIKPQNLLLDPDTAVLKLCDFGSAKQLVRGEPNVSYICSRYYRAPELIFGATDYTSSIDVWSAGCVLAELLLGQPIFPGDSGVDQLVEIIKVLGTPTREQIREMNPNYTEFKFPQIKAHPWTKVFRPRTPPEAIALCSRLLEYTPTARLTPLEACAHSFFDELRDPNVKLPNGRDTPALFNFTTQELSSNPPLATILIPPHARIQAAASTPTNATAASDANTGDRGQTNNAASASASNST
# UniProt P52333, sequence (whole entry, looked up): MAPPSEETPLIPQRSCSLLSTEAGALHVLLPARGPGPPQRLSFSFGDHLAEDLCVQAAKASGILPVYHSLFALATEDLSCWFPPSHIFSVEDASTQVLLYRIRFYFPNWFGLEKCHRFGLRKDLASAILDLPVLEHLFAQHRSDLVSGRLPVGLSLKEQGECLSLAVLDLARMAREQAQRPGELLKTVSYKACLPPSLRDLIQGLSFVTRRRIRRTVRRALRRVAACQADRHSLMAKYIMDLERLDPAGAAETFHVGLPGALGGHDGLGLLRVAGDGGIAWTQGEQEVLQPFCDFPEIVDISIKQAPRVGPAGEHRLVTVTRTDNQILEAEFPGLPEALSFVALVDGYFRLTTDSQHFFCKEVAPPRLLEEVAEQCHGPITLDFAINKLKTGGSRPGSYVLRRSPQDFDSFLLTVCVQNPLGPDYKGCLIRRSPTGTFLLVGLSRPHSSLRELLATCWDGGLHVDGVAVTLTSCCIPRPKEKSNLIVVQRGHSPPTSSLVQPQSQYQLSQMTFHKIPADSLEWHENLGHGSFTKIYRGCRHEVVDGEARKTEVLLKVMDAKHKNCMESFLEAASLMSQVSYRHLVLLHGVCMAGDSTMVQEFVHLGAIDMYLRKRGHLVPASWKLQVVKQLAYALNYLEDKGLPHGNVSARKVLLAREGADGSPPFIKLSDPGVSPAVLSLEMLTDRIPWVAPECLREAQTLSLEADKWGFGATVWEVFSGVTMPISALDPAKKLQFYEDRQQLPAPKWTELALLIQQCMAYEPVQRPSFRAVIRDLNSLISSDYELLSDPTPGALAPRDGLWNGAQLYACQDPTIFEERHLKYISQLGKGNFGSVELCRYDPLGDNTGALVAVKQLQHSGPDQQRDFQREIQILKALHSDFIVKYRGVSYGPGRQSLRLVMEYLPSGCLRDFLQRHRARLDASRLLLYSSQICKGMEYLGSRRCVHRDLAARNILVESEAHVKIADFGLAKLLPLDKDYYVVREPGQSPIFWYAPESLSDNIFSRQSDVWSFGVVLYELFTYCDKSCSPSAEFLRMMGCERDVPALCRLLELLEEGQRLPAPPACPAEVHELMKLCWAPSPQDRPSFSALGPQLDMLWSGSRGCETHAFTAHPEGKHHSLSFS
# UniProt Q15349, sequence (whole entry, looked up): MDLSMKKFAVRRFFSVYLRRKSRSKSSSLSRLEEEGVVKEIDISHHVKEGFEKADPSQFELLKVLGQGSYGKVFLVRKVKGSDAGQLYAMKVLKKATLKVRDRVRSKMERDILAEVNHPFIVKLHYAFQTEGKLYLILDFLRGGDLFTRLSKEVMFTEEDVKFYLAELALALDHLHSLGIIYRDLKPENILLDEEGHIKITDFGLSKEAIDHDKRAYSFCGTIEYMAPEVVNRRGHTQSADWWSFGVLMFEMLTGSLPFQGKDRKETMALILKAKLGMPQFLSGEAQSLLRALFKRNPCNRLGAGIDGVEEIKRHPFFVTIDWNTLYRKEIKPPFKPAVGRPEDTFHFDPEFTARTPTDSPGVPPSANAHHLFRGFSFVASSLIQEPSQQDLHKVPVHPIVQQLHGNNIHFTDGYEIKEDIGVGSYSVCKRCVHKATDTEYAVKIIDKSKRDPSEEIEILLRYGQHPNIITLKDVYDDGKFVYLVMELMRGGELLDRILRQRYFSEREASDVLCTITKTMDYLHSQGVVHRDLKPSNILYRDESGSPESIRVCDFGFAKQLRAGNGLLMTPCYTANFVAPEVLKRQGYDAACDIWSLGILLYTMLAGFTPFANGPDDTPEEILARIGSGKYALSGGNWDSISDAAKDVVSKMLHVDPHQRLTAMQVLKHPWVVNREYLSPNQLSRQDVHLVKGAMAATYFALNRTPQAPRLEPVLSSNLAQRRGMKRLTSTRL
# UniProt P51817, sequence (whole entry, looked up): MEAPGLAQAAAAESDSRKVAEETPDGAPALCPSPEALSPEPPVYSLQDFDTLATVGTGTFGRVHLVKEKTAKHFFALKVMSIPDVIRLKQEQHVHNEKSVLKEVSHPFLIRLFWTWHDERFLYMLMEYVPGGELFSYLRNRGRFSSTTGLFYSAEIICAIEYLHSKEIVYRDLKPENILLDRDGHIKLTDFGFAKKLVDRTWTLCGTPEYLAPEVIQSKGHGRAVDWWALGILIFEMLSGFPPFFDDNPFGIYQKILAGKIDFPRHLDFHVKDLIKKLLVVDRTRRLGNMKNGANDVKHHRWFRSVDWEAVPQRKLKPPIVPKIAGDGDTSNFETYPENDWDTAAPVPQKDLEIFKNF
# UniProt P36507, sequence (whole entry, looked up): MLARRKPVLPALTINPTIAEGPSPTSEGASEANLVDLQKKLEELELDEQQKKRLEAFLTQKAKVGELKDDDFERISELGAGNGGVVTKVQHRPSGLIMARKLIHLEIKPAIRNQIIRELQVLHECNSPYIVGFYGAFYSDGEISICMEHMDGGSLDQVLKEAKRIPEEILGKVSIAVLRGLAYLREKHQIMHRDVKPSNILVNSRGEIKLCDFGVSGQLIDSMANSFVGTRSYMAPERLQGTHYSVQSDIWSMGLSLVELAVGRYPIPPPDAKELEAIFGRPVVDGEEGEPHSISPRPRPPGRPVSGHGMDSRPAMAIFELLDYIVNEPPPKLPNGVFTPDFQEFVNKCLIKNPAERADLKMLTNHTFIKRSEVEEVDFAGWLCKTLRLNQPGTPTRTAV
# UniProt Q9UHD2, sequence (whole entry, looked up): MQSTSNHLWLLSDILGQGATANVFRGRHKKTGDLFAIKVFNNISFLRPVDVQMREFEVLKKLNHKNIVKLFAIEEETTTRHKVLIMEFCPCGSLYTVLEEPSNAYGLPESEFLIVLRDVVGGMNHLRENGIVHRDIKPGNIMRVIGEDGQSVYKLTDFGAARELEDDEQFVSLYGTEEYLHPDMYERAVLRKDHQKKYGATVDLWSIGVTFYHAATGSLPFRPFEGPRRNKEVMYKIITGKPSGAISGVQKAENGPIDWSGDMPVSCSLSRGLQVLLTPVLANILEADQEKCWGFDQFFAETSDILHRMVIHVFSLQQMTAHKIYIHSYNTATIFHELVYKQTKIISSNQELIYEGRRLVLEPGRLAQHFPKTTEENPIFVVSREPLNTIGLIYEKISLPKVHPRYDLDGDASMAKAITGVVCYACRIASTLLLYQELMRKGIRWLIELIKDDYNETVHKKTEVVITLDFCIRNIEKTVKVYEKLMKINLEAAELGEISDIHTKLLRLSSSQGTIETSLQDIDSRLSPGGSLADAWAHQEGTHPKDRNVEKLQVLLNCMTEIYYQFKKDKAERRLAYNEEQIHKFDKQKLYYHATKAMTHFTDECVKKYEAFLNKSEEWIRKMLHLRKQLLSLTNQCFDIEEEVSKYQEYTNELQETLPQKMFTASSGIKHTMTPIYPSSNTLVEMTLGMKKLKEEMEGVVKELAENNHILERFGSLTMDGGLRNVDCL
# UniProt P78368, sequence (whole entry, looked up): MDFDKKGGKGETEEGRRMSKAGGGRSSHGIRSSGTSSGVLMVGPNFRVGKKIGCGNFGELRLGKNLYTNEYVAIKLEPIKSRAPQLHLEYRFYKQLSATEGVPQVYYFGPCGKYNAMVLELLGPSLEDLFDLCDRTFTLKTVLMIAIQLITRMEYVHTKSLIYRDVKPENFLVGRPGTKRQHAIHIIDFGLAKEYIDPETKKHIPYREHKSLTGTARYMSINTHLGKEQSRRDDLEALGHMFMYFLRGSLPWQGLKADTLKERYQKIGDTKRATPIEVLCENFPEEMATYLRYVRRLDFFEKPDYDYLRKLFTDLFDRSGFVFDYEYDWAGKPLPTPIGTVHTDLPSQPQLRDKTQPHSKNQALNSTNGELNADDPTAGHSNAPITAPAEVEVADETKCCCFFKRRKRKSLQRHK
# UniProt P49137, sequence (whole entry, looked up): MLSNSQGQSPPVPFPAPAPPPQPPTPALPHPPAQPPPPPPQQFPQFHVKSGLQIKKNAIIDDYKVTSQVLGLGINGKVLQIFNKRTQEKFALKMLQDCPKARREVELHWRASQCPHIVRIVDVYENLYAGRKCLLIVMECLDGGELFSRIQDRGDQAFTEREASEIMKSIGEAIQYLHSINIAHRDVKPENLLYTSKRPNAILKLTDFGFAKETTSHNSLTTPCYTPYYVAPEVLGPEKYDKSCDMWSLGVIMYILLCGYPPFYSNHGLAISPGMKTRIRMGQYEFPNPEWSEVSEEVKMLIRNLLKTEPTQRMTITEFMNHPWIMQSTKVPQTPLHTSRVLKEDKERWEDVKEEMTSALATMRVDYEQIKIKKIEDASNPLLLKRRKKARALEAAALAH

# Study 1
# Cell line: HaCaT
# Tested at: 100 µM
# Time: 18 h
SMILES,viability [%]
CC(C)N1CCN(c2ccc(OC[C@H]3CO[C@](Cn4cncn4)(c4ccc(Cl)cc4Cl)O3)cc2)CC1 (racemic),39.9
O=C1OC(CN2CCOCC2)CN1/N=C/c1ccc([N+](=O)[O-])o1 (stereo not drawn),81.9
C[C@@H]1C[C@H]2[C@@H]3CCC4=CC(=O)C=C[C@]4(C)[C@@]3(Cl)[C@@H](O)C[C@]2(C)[C@@]1(OC(=O)c1ccco1)C(=O)CCl,30

# Study 2
# SMILES: CSc1nc(-c2ccnc(N[C@@H](C)c3ccccc3)c2)c(-c2ccc(F)cc2)[nH]1 (racemic)
# Effect on: enzyme activity
# Action: inhibitor
# Tested at: 0.5 µM
# Reference: control
target,remaining activity
"MAP2K2 (Homo sapiens, UniProt P36507)",78.6%
"ULK2 (Homo sapiens, UniProt Q8IYT8)",94.1%
"NEK6 (Homo sapiens, UniProt Q9HC98)",106%
"GSK3B (Homo sapiens, UniProt P49841)",97.9%
"TBK1 (Homo sapiens, UniProt Q9UHD2)",92%
"JAK3 (Homo sapiens, UniProt P52333)",98.5%
"MAP3K5 (Homo sapiens, UniProt Q99683)",106%
"EPHA3 (Homo sapiens, UniProt P29320)",82.5%
"RPS6KA2 (Homo sapiens, UniProt Q15349)",94.3%
"CSNK1G2 (Homo sapiens, UniProt P78368)",75.6%
"CSNK1G3 (Homo sapiens, UniProt Q9Y6M4)",58.4%
"MERTK (Homo sapiens, UniProt Q12866)",93.1%
"ULK3 (Homo sapiens, UniProt Q6PHR2)",85.3%
"MAPKAPK2 (Homo sapiens, UniProt P49137)",106%

# Study 3
# Cell line: mouse MPNST tumor cells
# Method: high-content nuclear imaging
# Measured: cell number
# Tested at: 10 µM
# Time: 12 h
# Setting: mean of 2 replicates
# Reference: plate mean
# Reading: higher = more cells
Structure (SMILES),nuclei count [z-score]
CC(ONC(=O)c1cc(C(F)(F)F)cc(C(F)(F)F)c1)C(=O)Nc1ccc(Cl)cc1 (stereo not drawn),1.49
C[C@@H]1C[C@H]2[C@@H]3CCC4=CC(=O)C=C[C@]4(C)[C@@]3(F)[C@@H](O)C[C@]2(C)[C@@]1(O)C(=O)CO,3.88
COc1cccc([C@H](O)C2CCN(CCc3ccc(F)cc3)CC2)c1OC,1.84
CC(C)[C@H](NS(=O)(=O)c1ccc(-c2ccc(Br)cc2)cc1)C(=O)O,1.43
Cc1ccc(S(=O)(=O)N2CCCC2c2ccc(F)cc2)cc1 (stereo not drawn),0.68
CCC(CC)O[C@@H]1C=C(C(=O)O)C[C@H](N)[C@H]1NC(C)=O,0.627

# Study 4
# Species: mouse
# Sample: microsomes or S9
# Tested at: 2 µM
# Time: 0.5 h
Structure (SMILES),remaining compound [%]
c1cc2c(cc1C1CCCCC1)c1c3n2CCN=C3NCC1,77
CC1(C)CC(=O)C2=C(C1)c1c(ccc3ncccc13)NC2c1ccc(F)cc1 (stereo not drawn),30
Cc1ccc(S(=O)(=O)Nc2cccc(NS(=O)(=O)c3ccc(C)cc3)c2-n2ccc3cccnc32)cc1,0.107
O=C(Nc1nc(-c2ccncc2)cs1)c1ccccn1,13.5
CCOC(=O)C1CCN(C(=O)CCC(=O)N2CCCn3nc(-c4cn(C)c5ccccc45)cc32)CC1,1.39
CCOc1ccc(S(=O)(=O)Nc2cnc3ccccc3c2)cc1,1.78

# Study 5
# Structure (SMILES): C[C@H](c1ccc(F)cc1)N(Cc1cccc(C(=O)O)c1)C(=O)c1cnc2ccccc2c1
# Effect on: cell-free assay
# Method: competition with immobilised ligand
# Tested at: 1 µM
target,remaining binding
"NEK6 (Homo sapiens, UniProt Q9HC98)",92%
"Cyclin-dependent kinase 4, with cyclin D3 (CDK4, Homo sapiens, UniProt P11802)",100%
"EPHB2 (Homo sapiens, UniProt P29323)",96%
"PRKX (Homo sapiens, UniProt P51817)",100%

# A few entries again (study 3):
Structure (SMILES),nuclei count [z-score]
CCC(CC)O[C@@H]1C=C(C(=O)O)C[C@H](N)[C@H]1NC(C)=O,0.627
CC(ONC(=O)c1cc(C(F)(F)F)cc(C(F)(F)F)c1)C(=O)Nc1ccc(Cl)cc1 (stereo not drawn),1.49
C[C@@H]1C[C@H]2[C@@H]3CCC4=CC(=O)C=C[C@]4(C)[C@@]3(F)[C@@H](O)C[C@]2(C)[C@@]1(O)C(=O)CO,3.88
